Experimental data pooled from the literature.
A part holds a random share of what one study measured.

Series 1 — technique: RNA Bind-n-Seq; molecule type: RNA; sample: in vitro; concentration: 200 nM; notes: whole 134-nt RNA, ends assumed; added: 150 mM LiCl; relative to: input library; direction: higher = stronger binding; library: 7-deaza-guanosine replaces G
Target: Fragile X messenger ribonucleoprotein 1, C-terminal low-complexity region (Fmr1, Mus musculus, UniProt P35922)
All sequences stand within: GGGAGUUCUACAGUCCGACGAUC … UGGAAUUCUCGGGUGUCAAGG
`CCUGUGCUACACAUCGUAUGUACCGAAUCGGGGCCCCCCGGCCCCCCGGGGCCCCCCGGGGAAAGUAUUAUGUUACGCCGUUCGGAUCUG` gave a log2 enrichment of -1.23.
The log2 enrichment of `UAACUUUAGAGGAGGAUCUGAUGGAUAUGGCAGUGGACGUGGAUUUGGGGCUGGCUAUAAUGGGUAUGGAGGAGGACCUGGAGGUGGCAA` is reported as 0.56.
For `UGGCCCUGGUGGCAUGCGGGGAGGAAGAGGUGGCCUCAUGGAUCGUGGUGGUCCCGGUGGAAUGUCCAGAGGUGGCCGUGGUGGAGACAG`, the log2 enrichment was -0.802.
For `UAACUUUAGAGGAGGAUCUGCUGGAUAUGGCAGUGGACGUGGAUUUGGGGAUGGCUAUAAUGGGUAUGGAGGAGGACCUGGAGGUGGCAA`, the log2 enrichment was 0.268.
The log2 enrichment of `AGUCCUGUGCUACACAUCGUAUGUACCGAAUCAAACCCCCAAAUUUAAACCCCCAAAAAAGUAUUAUGUUACGCCGUUCGGAUCUGCACU` is reported as 1.03.
For `GCAGCAAGUAAAAACAAAUGGAAAUGCUUCGGAUAGUGGCAGGGGUGGGGGUUGCUAAGGAAAGGGUGGGAUGGGAGUGGGUAAAGAGUU`, the log2 enrichment was 1.25.
With `GCAGGAAGUAAAAACAAAUGGAAAUGCUUCGGAUAGUGGCAGGGGUGGGGGUUGCUAAGGAAAGGGUGGGAUGGGAGUGGGUCAAGAGUU` the log2 enrichment was 1.48.
`GUCCUGUGCUACACAUCGUAUGUACCGAAUCGGCCCCCCGGCCCCCCGGCCCCCCGGGGAAAGUAUUAUGUUACGCCGUUCGGAUCUGCA` gave a log2 enrichment of 1.09.
`AGUCCUGUGCUACACAUCGUAUGUACCGAAUCAAAUUUUUAAAUUUAAAUUUUUAAAAAAGUAUUAUGUUACGCCGUUCGGAUCUGCACU` has a log2 enrichment of -3.16.
With `UCCGCACACCCGGCCUGUCACCCUGCUUUCCCUGCCUCUACUUGACUUGGAAUUGGCUGAAGACUACACAGGAAUGCAUCGUUCCCACUC` the log2 enrichment was 1.26.
The log2 enrichment of `CACAGACAACACGCACCCACACAGACACAGAGGGAAGGGGUUGGGAUGGGGACAGGGUGCACAGCAGGGCGGGGUAGGAUCCCAGCCCCU` is reported as 1.67.

Series 2 — technique: protein binding microarray; molecule type: double-stranded DNA, one strand shown; sample: in vitro; concentration: not given; relative to: not given; direction: higher = stronger binding
Target: Histone acetyltransferase KAT6A, winged helix 1, GST fusion (KAT6A, Homo sapiens, UniProt Q92794, residues 1-85)
Notes: 8-mer, flanks averaged, mean of 2 arrays, mostly near background
Construct (chain): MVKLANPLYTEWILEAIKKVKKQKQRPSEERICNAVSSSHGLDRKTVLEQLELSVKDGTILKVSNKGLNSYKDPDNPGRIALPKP
The E-score of `AGTAGTAC` is reported as 0.0955.
For `AATTCAAG`, the E-score was -0.247.
`ACAGCTAA` gave an E-score of -0.103.
With `ATCATCTG` the E-score was -0.141.
`AGAATGGA` gave an E-score of -0.16.
For `CATGACAC`, the E-score was -0.00552.
For `CGTTACTC`, the E-score was -0.0362.
The E-score of `CCAAATCA` is reported as -0.141.
The E-score of `TCCTACGA` is reported as -0.177.
The E-score of `ACAGAACC` is reported as -0.054.
`ATGTCTGC` has an E-score of -0.0271.
`CGAGGCCC` has an E-score of 0.118.
For `ATAGGCGG`, the E-score was 0.321.
`CCAACGGC` has an E-score of 0.292.
`CGGAATTC` has an E-score of -0.0471.
For `ATCTGACA`, the E-score was -0.206.
The E-score of `ATGACATG` is reported as -0.191.
With `ACTCCACC` the E-score was -0.115.
`AGAACGAT` gave an E-score of -0.133.

Series 3 — technique: RNA Bind-n-Seq; molecule type: RNA; sample: in vitro; concentration: not given; notes: RNA with constant flanks, ends assumed; relative to: input RNA pool; direction: higher = stronger binding
Target: RING finger protein unkempt homolog, zinc fingers 1-6, GST-SBP tag (UNK, Homo sapiens, UniProt Q9C0B0, residues 30-357)
All sequences stand within: GGGAGUUCUACAGUCCGACGAUC … CAACAGAGGAUUGAGCAUCA
Construct (chain): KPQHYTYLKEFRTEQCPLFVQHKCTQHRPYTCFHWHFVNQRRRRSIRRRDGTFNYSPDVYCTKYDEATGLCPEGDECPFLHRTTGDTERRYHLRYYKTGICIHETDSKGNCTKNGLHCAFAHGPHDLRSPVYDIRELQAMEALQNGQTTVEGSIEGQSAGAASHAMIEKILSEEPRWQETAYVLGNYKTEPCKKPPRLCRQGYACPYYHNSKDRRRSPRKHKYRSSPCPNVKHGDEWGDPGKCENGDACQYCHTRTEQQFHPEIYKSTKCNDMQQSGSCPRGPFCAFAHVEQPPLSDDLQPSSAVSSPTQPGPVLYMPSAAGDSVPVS
For `GAAAAAGAGGAGGAAGUACAUGCUCGUUUACUUCAUUGUGUAAGCAAACAGAAAAUUUUACUCCGCCAGGCUAGAAGAACUCAGAAACAUUUGCAGAUGCUCCUGGCAAAGCAUGUUGUU`, the bound/input enrichment was 0.124 ratio.
With `UACAAUGUAUUUGUGUAAUUUAUAGAAGUAAAAUCUAGAUGUUGAGACCUGUUUGGUCUAACCGAUGUGGAUACAGUUUAUUUUACUUGAAAUUUUGUUGUCUACUUUGUGUGUUUAACG` the bound/input enrichment was 0.658 ratio.
The bound/input enrichment of `UGGCAUACAGACCAGUUUUAGGACUGGUAAUCCAACAGGGACUUACCAGAACGGUUAUGACCGCACUCAGCAAUAUGGAAGUAAUGUUGCAAAUAUGCACAAUGGUAUGAACCAACAGGC` is reported as 0.107 ratio.
`CCUCCCCGGGCCACCCAGCCCGCCCAACUCCCAGCGGAGAGCAAGGUUUUCUUCUGUUUUCACCGCCAGCCAGAACAAUGUUCUACGCACAUUUUGUUCUCAGUAAAAGAGGGCCUCUGG` gave a bound/input enrichment of 0.462 ratio.
For `AGAAAUGGGCCGCUCCAAUUCUAGAUCACAUUCUUCAAGAUCCAAGUCUAGAUCACAGUCCCGUUCCCGAUCAAGAUCAAGAUCACAUUCUAGAAAGAAGAGAUACAGUUCUAGGUCUCG`, the bound/input enrichment was 0.159 ratio.
The bound/input enrichment of `AAUCAGGCAAAGAAAGGGGGUGUAAGUUGUGGGACCAGUUUUAGAGGGACAGUUGGACGGACCCGAGAUUACACUGUUUUACAUCCAUCUUGCUUGUCAGUUUGUAAUGUUACCAUACAG` is reported as 0.467 ratio.
With `GGCUCCAGGAGCUGUCCUUGAACUUGGAGAAGGAUUUGGGUAAGAAUGCCAGUCCCCGAGUCCGCCGCACGAGGCUUUGUGCCUUGCCCCCAUUGAUGUCUGAUAUUGCUGCAAUCCAGG` the bound/input enrichment was 0.131 ratio.
For `GAUUCUACCUCUGCAGUCAAAGAGAAAACAGCAACUUGCCACAGUUCCUCUUCUCCACCAACCGAUGCAGCAUCCGCAGAGCCCUAUGGCUUCCGUGCCUCAGUGUUAUUCGAUACAAUG`, the bound/input enrichment was 0.138 ratio.
The bound/input enrichment of `GCAGAGAUGGAGAAUAUUAAGGCGAUUGCCACAGUCUCUGAGAACACCAAGCAAGAAGCUACCGAUGAAGUGAAAAGACAGUGGAGAGAAGAAGUUGCUUCACUUCAGGCUGUUAUGAAA` is reported as 0.0665 ratio.
For `ACAGAGCCCCCCUACACAGCAUACGUAGGAAAUCUACCUUUCAAUACGGUUCAGGGCGACACCGAUGCUAUCUUUAAGGAUCUCAGCAUAAGGAGUGUACGGCUAGUCAGAGACAAAGAC`, the bound/input enrichment was 0.224 ratio.
With `ACUUUUGGACUUGAUCAGUUGAAAACAAGAGAAGCCAUUGCCAUGCUACACAAAGAUGGCACCGAAUUUGCUUUUAAAGAGCCUAAUCCGCAAGGGGAGAGCCAUCCACCUUUAAAUUUG` the bound/input enrichment was 0.171 ratio.

Series 4 — technique: competition protein-binding microarray; molecule type: double-stranded DNA, one strand shown; sample: in vitro; concentration: 2 µM; added: Pho4 competitor, 0.05 µM; direction: higher = stronger binding; all sequences stand within: … GTCTTGATTCGCTTGACGCTGCTG
Target: Centromere-binding protein 1, full length, His-tagged (CBF1, Saccharomyces cerevisiae, UniProt P17106, residues 1-351)
Chain of UniProt P17106 (whole entry, looked up): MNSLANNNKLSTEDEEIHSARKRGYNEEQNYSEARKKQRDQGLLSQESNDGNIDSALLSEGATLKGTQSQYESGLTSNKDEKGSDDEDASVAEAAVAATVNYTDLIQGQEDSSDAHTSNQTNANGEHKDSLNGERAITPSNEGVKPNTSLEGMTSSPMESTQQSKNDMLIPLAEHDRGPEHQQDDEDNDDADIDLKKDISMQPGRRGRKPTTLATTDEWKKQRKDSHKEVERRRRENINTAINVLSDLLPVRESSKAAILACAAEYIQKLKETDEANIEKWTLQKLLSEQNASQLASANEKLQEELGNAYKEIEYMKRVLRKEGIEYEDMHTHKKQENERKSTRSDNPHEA
Notes: whole 60-bp probe, lowest competitor level
The fluorescence intensity of `TTCCAGTCCTTCCATCACGCATTCCATATAATAACC` is reported as 118 a.u.
With `CTTCTGTAAATTTGGGACGTGGGTGGACGCGCCCCG` the fluorescence intensity was 92.2 a.u.
With `TGCGCAACAACTTGCCGGGTGGGTGTATGTCTAGAA` the fluorescence intensity was 56 a.u.
`CGTATACATAGGCATTGCGTGTTGAAAAATTGTCGG` gave a fluorescence intensity of 85.4 a.u.
`CATACCCAACCTTGCGAAGTGGGTGAAGATATTTGT` has a fluorescence intensity of 57.3 a.u.
With `CTCTTGGTTTACTGTCACATGGAGAACCTTTACTGG` the fluorescence intensity was 473 a.u.
With `CGGGGTTAAGTTTGCGTTGTGGGTGGCTTGCAGCAG` the fluorescence intensity was 93.6 a.u.
`TGCGCAACAACTTGCTTTGTGGGTGTATGTCTAGAA` gave a fluorescence intensity of 82.1 a.u.
`CCAGACACATCCCATTGCATGACGCAAGTGTGGGAG` gave a fluorescence intensity of 61 a.u.
`AGCACTTACGGTTACAACGTGAGCCCTGTCGAAGAA` gave a fluorescence intensity of 99.1 a.u.
`GTAGACCTTGATGTCCATGTGGAAAGCCAAAGCCAT` gave a fluorescence intensity of 99.7 a.u.
With `GTCTTGTCTCATTGACCGGTGGGTGTCCCCACTTCA` the fluorescence intensity was 79.8 a.u.
`TTCGGGACATCTTGTCATGCTCCTCGCAATTCACTC` has a fluorescence intensity of 90.1 a.u.
For `ACTTGATTTGCGGAGAACGTGATGGCGACGCACTCG`, the fluorescence intensity was 284 a.u.
`CAACTTTTACGAATTCTCGTGCAAATTTTCAGCGAT` gave a fluorescence intensity of 121 a.u.
`TTCATAGTAAAGTTCCTCGTGAAACTGGTTTCTCAA` has a fluorescence intensity of 96.8 a.u.
`TGTGGCGATAAGTCCCACGTGAAGGTACAACTTCTC` has a fluorescence intensity of 674 a.u.
With `TCAAGTATCTTTTAGCACGTATCAGATAACTAATGG` the fluorescence intensity was 99.8 a.u.
`ACCACTCAGGTCCAGAACGTGACTCGTCTTTGCACC` gave a fluorescence intensity of 644 a.u.
`CGTCCTAGCGATTGACACGTGGGTGCCATGAGGAAG` has a fluorescence intensity of 871 a.u.
With `CTTCTGTAAATTTGTCACGTGGGTGGACGCGCCCCG` the fluorescence intensity was 4600 a.u.
The fluorescence intensity of `CCAGATGCTGATTTGCACGTGTTGGGATCATATTCT` is reported as 1270 a.u.
The fluorescence intensity of `CATACCCAACCTTGTACCGTGGGTGAAGATATTTGT` is reported as 70.7 a.u.
`CATACCCAACCTTGAGACGTGGGTGAAGATATTTGT` has a fluorescence intensity of 73.6 a.u.
With `TTGCCATCTGTCCGTCACACTTTGTTCAACAACTAC` the fluorescence intensity was 84.4 a.u.

A few entries again (series 3):
For `GAAAAAGAGGAGGAAGUACAUGCUCGUUUACUUCAUUGUGUAAGCAAACAGAAAAUUUUACUCCGCCAGGCUAGAAGAACUCAGAAACAUUUGCAGAUGCUCCUGGCAAAGCAUGUUGUU`, the bound/input enrichment was 0.124 ratio.
For `GAUUCUACCUCUGCAGUCAAAGAGAAAACAGCAACUUGCCACAGUUCCUCUUCUCCACCAACCGAUGCAGCAUCCGCAGAGCCCUAUGGCUUCCGUGCCUCAGUGUUAUUCGAUACAAUG`, the bound/input enrichment was 0.138 ratio.
For `AGAAAUGGGCCGCUCCAAUUCUAGAUCACAUUCUUCAAGAUCCAAGUCUAGAUCACAGUCCCGUUCCCGAUCAAGAUCAAGAUCACAUUCUAGAAAGAAGAGAUACAGUUCUAGGUCUCG`, the bound/input enrichment was 0.159 ratio.
For `ACAGAGCCCCCCUACACAGCAUACGUAGGAAAUCUACCUUUCAAUACGGUUCAGGGCGACACCGAUGCUAUCUUUAAGGAUCUCAGCAUAAGGAGUGUACGGCUAGUCAGAGACAAAGAC`, the bound/input enrichment was 0.224 ratio.
`CCUCCCCGGGCCACCCAGCCCGCCCAACUCCCAGCGGAGAGCAAGGUUUUCUUCUGUUUUCACCGCCAGCCAGAACAAUGUUCUACGCACAUUUUGUUCUCAGUAAAAGAGGGCCUCUGG` gave a bound/input enrichment of 0.462 ratio.
With `ACUUUUGGACUUGAUCAGUUGAAAACAAGAGAAGCCAUUGCCAUGCUACACAAAGAUGGCACCGAAUUUGCUUUUAAAGAGCCUAAUCCGCAAGGGGAGAGCCAUCCACCUUUAAAUUUG` the bound/input enrichment was 0.171 ratio.
The bound/input enrichment of `GCAGAGAUGGAGAAUAUUAAGGCGAUUGCCACAGUCUCUGAGAACACCAAGCAAGAAGCUACCGAUGAAGUGAAAAGACAGUGGAGAGAAGAAGUUGCUUCACUUCAGGCUGUUAUGAAA` is reported as 0.0665 ratio.
With `GGCUCCAGGAGCUGUCCUUGAACUUGGAGAAGGAUUUGGGUAAGAAUGCCAGUCCCCGAGUCCGCCGCACGAGGCUUUGUGCCUUGCCCCCAUUGAUGUCUGAUAUUGCUGCAAUCCAGG` the bound/input enrichment was 0.131 ratio.
